{"data": "Measured values gathered from unrelated publications", "note": "Each numbered part is a random draw from the data of one study; scales do not carry over between parts. Numbers after ± are the reported error."}
{"data": "Block 1", "cell line": "HEK293 cells", "technique": "resazurin", "time": "24 h"}
{"Compound": "CC[C@H](C)[C@H](NC(=O)[C@H](Cc1ccccc1)NC(=O)[C@H](CC(=O)O)NC(=O)[C@H](CCCCN)NC(=O)[C@H](C)NC(=O)[C@H](CCCCN)NC(=O)[C@H](CC(N)=O)NC(=O)[C@H](CC(C)C)NC(=O)[C@H](Cc1c[nH]c2ccccc12)NC(=O)[C@H](CCC(=O)O)NC(=O)[C@H](CCCCN)NC(=O)[C@@H](NC(=O)CNC(=O)[C@H](C)N)[C@@H](C)O)C(=O)N[C@@H](CCCCN)C(=O)N[C@@H](CCC(=O)O)C(=O)N[C@@H](CCCCN)C(=O)NCC(=O)N[C@@H](CC(C)C)C(=O)NCC(=O)N[C@@H](CCSC)C(=O)N[C@@H](CC(C)C)C(=O)N[C@@H](CCCNC(=N)N)C(=O)N[C@@H](C)C(=O)N[C@@H](C)C(=O)N[C@@H](C)C(=O)N[C@@H](CC(N)=O)C(=O)N[C@@H](C)C(=O)N[C@@H](C)C(=O)N[C@@H](CC(C)C)C(=O)N[C@@H](CC(N)=O)C(=O)O", "CC50 [µM]": "> 100"}
{"Compound": "CC[C@H](C)[C@H](NC(=O)[C@H](Cc1ccccc1)NC(=O)[C@H](CC(=O)O)NC(=O)[C@H](CCCCN)NC(=O)[C@H](C)NC(=O)[C@H](CCCCN)NC(=O)[C@H](CC(N)=O)NC(=O)[C@H](CC(C)C)NC(=O)[C@H](Cc1c[nH]c2ccccc12)NC(=O)[C@H](CCC(=O)O)NC(=O)[C@H](CCCCN)NC(=O)[C@@H](NC(=O)CNC(=O)[C@H](C)N)[C@@H](C)O)C(=O)N[C@@H](CCCCN)C(=O)N[C@@H](CCC(=O)O)C(=O)N[C@@H](CCCCN)C(=O)NCC(=O)N[C@@H](CC(C)C)C(=O)N[C@@H](CCC(=O)O)C(=O)N[C@@H](CCSC)C(=O)N[C@@H](CC(C)C)C(=O)N[C@@H](CO)C(=O)N[C@@H](C)C(=O)N[C@@H](C)C(=O)N[C@@H](C)C(=O)N[C@@H](CC(N)=O)C(=O)N[C@@H](C)C(=O)N[C@@H](C)C(=O)N[C@@H](CC(C)C)C(=O)N[C@@H](CC(N)=O)C(=O)O", "CC50 [µM]": "> 250"}
{"Compound": "CC[C@H](C)[C@H](NC(=O)CNC(=O)[C@H](CC(C)C)NC(=O)CNC(=O)[C@H](CCCCN)NC(=O)[C@H](CCC(=O)O)NC(=O)[C@H](CCCCN)NC(=O)[C@@H](NC(=O)[C@H](Cc1ccccc1)NC(=O)[C@H](CC(=O)O)NC(=O)[C@H](CCCCN)NC(=O)[C@H](C)NC(=O)[C@H](CCCCN)NC(=O)[C@H](CC(N)=O)NC(=O)[C@H](CC(C)C)NC(=O)[C@H](Cc1c[nH]c2ccccc12)NC(=O)[C@H](CC(=O)O)NC(=O)[C@H](CCCCN)NC(=O)[C@@H](NC(=O)CNC(=O)[C@H](C)N)[C@@H](C)O)[C@@H](C)CC)C(=O)N[C@@H](CC(C)C)C(=O)N[C@@H](CO)C(=O)N[C@@H](C)C(=O)N[C@@H](C)C(=O)N[C@@H](C)C(=O)N[C@@H](CC(N)=O)C(=O)N[C@@H](C)C(=O)N[C@@H](C)C(=O)N[C@H](C(=O)N[C@@H](CC(N)=O)C(=O)O)[C@@H](C)CC", "CC50 [µM]": "> 250"}
{"data": "Other studies, line by line"}
{"Compound": "CC(C)Oc1ccc(-n2cnc3cc(/C=C\\c4ccc(C(C)(C)O)cc4)ccc32)cc1", "tested on": "Lassa virus", "system": "HeLa, clade IV Josiah", "quantity": "EC50", "value": "260 ± 190 nM"}
{"Compound": "CC(C)C[C@@H]1NC(=O)[C@H](CCCNC(=N)N)NC(=O)[C@@H]2CCCN2C(=O)[C@@H]2CSSC[C@H](NC(=O)CNC(=O)[C@@H]3CCCN3C(=O)[C@H](CCCCN)NC(=O)[C@H](CC(=O)O)NC(=O)[C@@H](NC(=O)CN)C(C)C)C(=O)N[C@@H](CCCNC(=N)N)C(=O)N[C@@H](Cc3ccc(O)cc3)C(=O)N[C@@H](CC(C)C)C(=O)N[C@@H](Cc3ccccc3)C(=O)NCC(=O)NCC(=O)N[C@H]3CSSC[C@H](NC(=O)CNC1=O)C(=O)N[C@@H](CCCCN)C(=O)NCC(=O)N[C@@H](CCCCN)C(=O)NCC(=O)N[C@@H](Cc1c[nH]cn1)C(=O)N[C@@H](CC(=O)O)C(=O)N[C@@H](Cc1ccc(O)cc1)C(=O)N[C@H](C(=O)N[C@@H](C)C(=O)N[C@@H](Cc1c[nH]c4ccccc14)C(=O)N[C@@H](CC(=O)O)C(=O)NCC(=O)N[C@H](C(=O)N[C@@H](Cc1ccccc1)C(=O)N[C@@H](CO)C(=O)N[C@@H](CC(=O)O)C(=O)O)[C@@H](C)O)CSSC[C@H](NC(=O)[C@H](CC(=O)O)NC(=O)[C@H](CC(=O)O)NC(=O)[C@H](CC(=O)O)NC(=O)[C@H](CO)NC(=O)[C@H](CCCCN)NC3=O)C(=O)N2", "tested on": "nAChR subtypes (human and rat)", "assay": "two-electrode voltage clamp", "system": "Xenopus oocytes", "conditions": "1 µM, with: acetylcholine", "quantity": "acetylcholine-evoked current", "value": "no effect"}
{"Compound": "[N-]=[N+]=N[C@]1(CO)O[C@@H](n2ccc(N)nc2=O)C(F)(F)[C@@H]1O", "tested on": "Zaire ebolavirus", "assay": "viral replication", "system": "Mayinga, recombinant", "quantity": "EC50", "value": "300 ± 20 nM"}
{"Compound": "CC[C@H](C)[C@H](NC(=O)CNC(=O)[C@H](C)NC(=O)[C@@H]1CCCN1C(=O)CNC(=O)[C@H](C)NC(=O)[C@H](CCC(=O)O)NC(=O)[C@@H]1CCCN1C(=O)[C@H](CC(=O)O)NC(=O)[C@H](C)NC(=O)[C@H](CCC(=O)O)NC(=O)[C@H](C)NC(=O)[C@H](CC(=O)O)NC(=O)[C@H](C)NC(=O)[C@H](CCC(=O)O)NC(=O)[C@H](C)NC(=O)[C@H](CCC(=O)O)NC(=O)[C@@H]1CCCN1C(=O)[C@@H](N)CCC(=O)O)C(=O)NCC(=O)N[C@@H](C)C(=O)N[C@H](C(=O)N[C@@H](CC(C)C)C(=O)N[C@@H](CCCCN)C(=O)N[C@H](C(=O)N[C@@H](CC(C)C)C(=O)N[C@H](C(=O)N[C@H](C(=O)NCC(=O)N[C@@H](CC(C)C)C(=O)N1CCC[C@H]1C(=O)N[C@@H](C)C(=O)N[C@@H](CC(C)C)C(=O)N[C@H](C(=O)N[C@@H](CO)C(=O)N[C@@H](Cc1c[nH]c2ccccc12)C(=O)N[C@H](C(=O)N[C@@H](CCCCN)C(=O)N[C@@H](CCCNC(=N)N)C(=O)N[C@@H](CCCCN)C(=O)N[C@@H](CCCNC(=N)N)C(=O)N[C@@H](CCC(N)=O)C(=O)N[C@@H](CCC(N)=O)C(N)=O)[C@@H](C)CC)[C@@H](C)CC)[C@@H](C)O)[C@@H](C)O)C(C)C)C(C)C", "tested on": "human erythrocytes, washed", "conditions": "1 h, 37 °C, 2% v/v RBC suspension", "quantity": "HD50", "value": "60 ± 3.7 µmol/L"}
{"Compound": "O=c1ccn(C2OC(F)(CO)C(O)C2O)c(=O)[nH]1 (stereo not drawn)", "tested on": "Lassa virus", "system": "HeLa, clade III Nigeria-231", "quantity": "EC50", "value": "8430 ± 1020 nM"}
{"Compound": "CC(C)C[C@H](NC(=O)[C@H](CCCCN)NC(=O)[C@H](Cc1c[nH]c2ccccc12)NC(=O)[C@H](CCCCN)NC(=O)[C@@H]1CSSC[C@@H]2NC(=O)[C@H](CCC(=O)O)NC(=O)[C@H](CC(N)=O)NC(=O)[C@H](CCCCN)NC(=O)CNC(=O)[C@@H]3CCCN3C(=O)[C@H]([C@@H](C)O)NC(=O)[C@@H]3CSSC[C@H](NC(=O)[C@H](C(C)C)NC(=O)[C@H](CCCNC(=N)N)NC(=O)[C@H](CC(N)=O)NC(=O)[C@@H]4CCCN4C(=O)[C@H](CSSC[C@H](NC(=O)[C@H](C)N)C(=O)N[C@@H](CCCCN)C(=O)NCC(=O)N[C@@H](C(C)C)C(=O)N[C@@H](Cc4ccccc4)C(=O)N[C@@H](CC(=O)O)C(=O)N[C@@H](C)C(=O)N3)NC2=O)C(=O)N[C@@H](CO)C(=O)N[C@@H](CC(=O)O)C(=O)N[C@@H](CCCCN)C(=O)N[C@@H](Cc2c[nH]cn2)C(=O)N[C@@H](CCCCN)C(=O)N[C@@H](Cc2c[nH]c3ccccc23)C(=O)N1)C(N)=O", "tested on": "Nav1.4 (rat)", "assay": "sodium current, inhibitor, two-electrode voltage clamp", "system": "Xenopus laevis oocytes", "conditions": "1 µM, pH 7.4, holding potential -90 mV", "quantity": "inhibition", "value": "17.6 ± 1.9%"}
{"note": "A few entries again (other studies, line by line):"}
{"Compound": "CC(C)C[C@H](NC(=O)[C@H](CCCCN)NC(=O)[C@H](Cc1c[nH]c2ccccc12)NC(=O)[C@H](CCCCN)NC(=O)[C@@H]1CSSC[C@@H]2NC(=O)[C@H](CCC(=O)O)NC(=O)[C@H](CC(N)=O)NC(=O)[C@H](CCCCN)NC(=O)CNC(=O)[C@@H]3CCCN3C(=O)[C@H]([C@@H](C)O)NC(=O)[C@@H]3CSSC[C@H](NC(=O)[C@H](C(C)C)NC(=O)[C@H](CCCNC(=N)N)NC(=O)[C@H](CC(N)=O)NC(=O)[C@@H]4CCCN4C(=O)[C@H](CSSC[C@H](NC(=O)[C@H](C)N)C(=O)N[C@@H](CCCCN)C(=O)NCC(=O)N[C@@H](C(C)C)C(=O)N[C@@H](Cc4ccccc4)C(=O)N[C@@H](CC(=O)O)C(=O)N[C@@H](C)C(=O)N3)NC2=O)C(=O)N[C@@H](CO)C(=O)N[C@@H](CC(=O)O)C(=O)N[C@@H](CCCCN)C(=O)N[C@@H](Cc2c[nH]cn2)C(=O)N[C@@H](CCCCN)C(=O)N[C@@H](Cc2c[nH]c3ccccc23)C(=O)N1)C(N)=O", "tested on": "Nav1.4 (rat)", "assay": "sodium current, inhibitor, two-electrode voltage clamp", "system": "Xenopus laevis oocytes", "conditions": "1 µM, pH 7.4, holding potential -90 mV", "quantity": "inhibition", "value": "17.6 ± 1.9%"}
